Measured values of several laboratories.
Lines come from different studies, so protocols differ. Numbers after ± are the reported error.
APP: Amyloid-beta precursor protein (APP, Homo sapiens, UniProt P05067)
Chain of UniProt P05067 (whole entry, looked up): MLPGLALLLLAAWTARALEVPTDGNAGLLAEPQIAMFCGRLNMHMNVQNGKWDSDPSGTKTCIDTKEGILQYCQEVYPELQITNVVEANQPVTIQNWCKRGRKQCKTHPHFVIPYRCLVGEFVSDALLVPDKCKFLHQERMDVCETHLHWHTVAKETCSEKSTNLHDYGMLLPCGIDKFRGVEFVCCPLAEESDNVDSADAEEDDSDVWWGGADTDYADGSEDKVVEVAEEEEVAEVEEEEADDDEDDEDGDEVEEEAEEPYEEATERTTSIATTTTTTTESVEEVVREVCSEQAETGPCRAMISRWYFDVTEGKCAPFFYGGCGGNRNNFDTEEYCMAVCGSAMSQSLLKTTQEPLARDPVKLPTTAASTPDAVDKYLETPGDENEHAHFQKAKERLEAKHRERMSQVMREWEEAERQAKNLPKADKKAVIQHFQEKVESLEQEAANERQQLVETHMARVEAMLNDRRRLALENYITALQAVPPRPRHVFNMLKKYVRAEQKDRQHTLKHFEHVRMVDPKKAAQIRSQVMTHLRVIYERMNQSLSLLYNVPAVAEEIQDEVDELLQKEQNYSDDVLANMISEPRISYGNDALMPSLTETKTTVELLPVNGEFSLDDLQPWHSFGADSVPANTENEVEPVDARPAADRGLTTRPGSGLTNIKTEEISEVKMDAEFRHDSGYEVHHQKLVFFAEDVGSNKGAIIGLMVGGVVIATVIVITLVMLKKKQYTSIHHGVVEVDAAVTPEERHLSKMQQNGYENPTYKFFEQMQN
Genome polyprotein NS2B-NS3 protease: Genome polyprotein, NS2B-NS3 protease (West Nile virus, UniProt P06935)
Chain of UniProt P06935 (whole entry, looked up): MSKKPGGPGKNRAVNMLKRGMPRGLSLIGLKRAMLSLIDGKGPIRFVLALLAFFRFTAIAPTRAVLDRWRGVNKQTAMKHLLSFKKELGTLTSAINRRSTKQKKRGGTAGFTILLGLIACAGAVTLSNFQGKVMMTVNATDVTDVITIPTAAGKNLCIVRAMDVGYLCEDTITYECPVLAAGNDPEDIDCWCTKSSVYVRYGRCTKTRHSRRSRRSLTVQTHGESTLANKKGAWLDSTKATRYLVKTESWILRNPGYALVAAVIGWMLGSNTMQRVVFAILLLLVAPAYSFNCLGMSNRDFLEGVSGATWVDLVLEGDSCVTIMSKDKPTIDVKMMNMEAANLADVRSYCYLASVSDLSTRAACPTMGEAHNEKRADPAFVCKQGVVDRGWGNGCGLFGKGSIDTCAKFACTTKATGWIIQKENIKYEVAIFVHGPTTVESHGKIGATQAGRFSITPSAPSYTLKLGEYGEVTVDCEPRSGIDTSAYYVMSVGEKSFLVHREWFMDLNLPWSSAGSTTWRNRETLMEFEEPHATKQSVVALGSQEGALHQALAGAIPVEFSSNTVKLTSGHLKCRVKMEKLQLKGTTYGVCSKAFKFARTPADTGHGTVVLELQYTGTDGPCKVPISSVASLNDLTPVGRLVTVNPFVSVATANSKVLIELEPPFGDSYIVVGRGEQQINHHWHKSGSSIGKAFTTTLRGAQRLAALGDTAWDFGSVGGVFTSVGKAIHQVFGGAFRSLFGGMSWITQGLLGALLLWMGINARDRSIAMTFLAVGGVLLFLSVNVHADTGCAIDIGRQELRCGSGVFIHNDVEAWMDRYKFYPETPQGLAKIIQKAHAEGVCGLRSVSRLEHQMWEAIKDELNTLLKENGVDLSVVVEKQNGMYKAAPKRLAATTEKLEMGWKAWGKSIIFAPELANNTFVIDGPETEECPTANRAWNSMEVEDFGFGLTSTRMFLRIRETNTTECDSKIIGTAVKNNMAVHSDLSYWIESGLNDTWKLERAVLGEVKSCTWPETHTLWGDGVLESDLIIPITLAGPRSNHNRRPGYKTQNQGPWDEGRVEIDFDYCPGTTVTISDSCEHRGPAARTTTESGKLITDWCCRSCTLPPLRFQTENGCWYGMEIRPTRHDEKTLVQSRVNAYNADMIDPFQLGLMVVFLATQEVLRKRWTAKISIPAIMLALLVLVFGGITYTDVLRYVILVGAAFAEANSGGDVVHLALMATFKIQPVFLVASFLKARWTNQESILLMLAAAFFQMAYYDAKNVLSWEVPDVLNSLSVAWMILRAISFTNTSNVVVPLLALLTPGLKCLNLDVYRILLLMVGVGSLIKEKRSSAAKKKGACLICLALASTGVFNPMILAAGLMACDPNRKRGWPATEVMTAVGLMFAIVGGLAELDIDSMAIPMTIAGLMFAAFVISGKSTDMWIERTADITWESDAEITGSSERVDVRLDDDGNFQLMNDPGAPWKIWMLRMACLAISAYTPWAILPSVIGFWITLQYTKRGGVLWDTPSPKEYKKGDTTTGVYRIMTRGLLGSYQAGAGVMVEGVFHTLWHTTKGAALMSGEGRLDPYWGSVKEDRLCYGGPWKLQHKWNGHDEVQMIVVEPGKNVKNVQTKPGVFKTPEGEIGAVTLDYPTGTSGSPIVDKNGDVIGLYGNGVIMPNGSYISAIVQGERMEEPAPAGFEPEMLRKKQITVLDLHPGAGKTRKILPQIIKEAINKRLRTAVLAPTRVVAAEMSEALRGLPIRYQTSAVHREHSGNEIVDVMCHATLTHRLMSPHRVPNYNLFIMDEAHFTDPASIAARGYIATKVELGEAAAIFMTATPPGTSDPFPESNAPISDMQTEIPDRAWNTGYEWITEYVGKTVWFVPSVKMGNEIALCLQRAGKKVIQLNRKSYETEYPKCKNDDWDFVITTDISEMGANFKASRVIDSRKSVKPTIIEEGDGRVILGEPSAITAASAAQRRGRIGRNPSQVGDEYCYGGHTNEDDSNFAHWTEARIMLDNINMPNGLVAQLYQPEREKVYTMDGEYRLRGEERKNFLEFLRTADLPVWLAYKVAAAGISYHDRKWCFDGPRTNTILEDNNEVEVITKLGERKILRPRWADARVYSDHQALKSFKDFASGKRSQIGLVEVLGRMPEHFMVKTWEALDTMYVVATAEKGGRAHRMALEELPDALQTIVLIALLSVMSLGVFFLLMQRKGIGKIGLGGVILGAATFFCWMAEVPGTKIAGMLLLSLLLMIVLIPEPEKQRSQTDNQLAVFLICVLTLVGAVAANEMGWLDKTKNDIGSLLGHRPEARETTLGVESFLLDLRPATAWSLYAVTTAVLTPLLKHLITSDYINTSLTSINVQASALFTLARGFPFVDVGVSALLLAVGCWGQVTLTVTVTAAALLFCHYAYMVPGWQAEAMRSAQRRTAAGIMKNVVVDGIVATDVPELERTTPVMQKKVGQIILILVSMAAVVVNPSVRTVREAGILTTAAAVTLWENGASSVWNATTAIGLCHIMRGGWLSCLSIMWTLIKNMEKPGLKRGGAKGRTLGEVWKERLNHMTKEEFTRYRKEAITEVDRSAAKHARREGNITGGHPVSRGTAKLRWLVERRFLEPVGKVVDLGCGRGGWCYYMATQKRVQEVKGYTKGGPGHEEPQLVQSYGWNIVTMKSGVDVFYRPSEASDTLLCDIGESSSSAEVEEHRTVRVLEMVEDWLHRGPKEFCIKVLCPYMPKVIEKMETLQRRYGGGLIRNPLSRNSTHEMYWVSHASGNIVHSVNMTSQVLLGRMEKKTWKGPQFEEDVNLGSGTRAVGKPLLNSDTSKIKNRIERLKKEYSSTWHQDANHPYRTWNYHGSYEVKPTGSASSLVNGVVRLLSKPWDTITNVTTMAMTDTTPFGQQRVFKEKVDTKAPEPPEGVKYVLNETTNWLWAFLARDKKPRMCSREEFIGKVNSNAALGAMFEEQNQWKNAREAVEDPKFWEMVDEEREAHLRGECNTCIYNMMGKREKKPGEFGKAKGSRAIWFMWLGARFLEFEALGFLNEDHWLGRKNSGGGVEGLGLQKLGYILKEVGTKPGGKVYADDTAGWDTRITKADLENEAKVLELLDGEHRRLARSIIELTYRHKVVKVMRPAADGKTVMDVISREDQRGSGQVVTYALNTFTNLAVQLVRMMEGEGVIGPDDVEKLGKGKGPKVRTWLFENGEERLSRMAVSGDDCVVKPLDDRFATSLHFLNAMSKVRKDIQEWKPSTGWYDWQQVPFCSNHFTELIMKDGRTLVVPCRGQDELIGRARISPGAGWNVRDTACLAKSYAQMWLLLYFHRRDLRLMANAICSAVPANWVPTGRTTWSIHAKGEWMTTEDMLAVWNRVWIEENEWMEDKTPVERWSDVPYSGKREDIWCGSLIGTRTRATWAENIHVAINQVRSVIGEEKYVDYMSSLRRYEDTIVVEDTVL
Chain of UniProt Q2M2I8 (whole entry, looked up): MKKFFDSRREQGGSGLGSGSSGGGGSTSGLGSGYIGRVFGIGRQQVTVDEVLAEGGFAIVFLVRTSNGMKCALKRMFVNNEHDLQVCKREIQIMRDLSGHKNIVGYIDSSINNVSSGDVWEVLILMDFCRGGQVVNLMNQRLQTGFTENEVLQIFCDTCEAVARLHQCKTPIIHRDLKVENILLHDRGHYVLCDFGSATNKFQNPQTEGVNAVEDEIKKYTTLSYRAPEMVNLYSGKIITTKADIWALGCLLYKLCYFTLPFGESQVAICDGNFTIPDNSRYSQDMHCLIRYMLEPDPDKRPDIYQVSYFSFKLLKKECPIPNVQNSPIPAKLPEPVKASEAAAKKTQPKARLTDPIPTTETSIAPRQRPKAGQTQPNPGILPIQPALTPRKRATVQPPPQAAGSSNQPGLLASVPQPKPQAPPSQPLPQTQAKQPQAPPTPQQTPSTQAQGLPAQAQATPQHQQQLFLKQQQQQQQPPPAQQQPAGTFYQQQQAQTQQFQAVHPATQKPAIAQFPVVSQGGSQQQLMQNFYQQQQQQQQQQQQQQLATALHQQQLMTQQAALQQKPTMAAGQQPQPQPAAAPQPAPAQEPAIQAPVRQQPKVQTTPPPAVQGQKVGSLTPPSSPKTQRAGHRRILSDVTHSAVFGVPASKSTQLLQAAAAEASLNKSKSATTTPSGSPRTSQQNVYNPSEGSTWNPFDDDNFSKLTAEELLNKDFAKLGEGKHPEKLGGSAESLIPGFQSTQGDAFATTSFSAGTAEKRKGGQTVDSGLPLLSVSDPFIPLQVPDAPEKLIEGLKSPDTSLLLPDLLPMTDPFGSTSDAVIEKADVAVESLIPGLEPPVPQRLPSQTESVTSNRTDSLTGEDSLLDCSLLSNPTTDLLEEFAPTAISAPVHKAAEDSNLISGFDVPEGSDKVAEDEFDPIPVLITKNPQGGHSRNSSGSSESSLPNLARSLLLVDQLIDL

CCN(CC)Cc1cc(Nc2ccnc3cc(Cl)ccc23)ccc1O
maximum response (Vero-E6; CellTiter-Glo ATP; 72 h, second round 5-point; baseline: DMSO 0%, hyamine -100%, more negative, more toxic): -11.2%

COc1cc(Nc2ncc(F)c(Nc3ccc4c(n3)NC(=O)C(C)(C)O4)n2)cc(OC)c1OC
inhibition (AAK1 (Homo sapiens, UniProt Q2M2I8); KINOMEscan; 10 µM): 89%

Clc1ccc2c(C3CCN(CCc4c[nH]c5ccccc45)CC3)c[nH]c2c1
inhibition (PDE4D (Homo sapiens, UniProt Q08499); enzyme activity, inhibitor; 10 µM): 6%

O=C(Nc1cnccc1Cl)N1CCN(Cc2ccc3c(c2)OC(F)(F)O3)CC1
inhibition (AVPR2 (Homo sapiens, UniProt P30518); binding; 10 µM, together with: [3H][Arg8]vasopressin): 5%

CC(=O)N[C@H]1[C@H]([C@H](O)[C@H](O)CO)OC(C(=O)O)=C[C@@H]1N
inhibition (Sialidase A (nanA, Streptococcus pneumoniae, UniProt P62575); 8 µM, pH 6): 7.9 ± 2.6%

O=c1[nH]c2sccc2c(=O)n1O
inhibition (Tripartite terminase subunit 3, C-terminal nuclease domain (Human betaherpesvirus 5, UniProt P16732); endonuclease activity, ELISA; 20 µM, together with: dsDNA): 94%

Cc1ccc(S(=O)(=O)Oc2ccc3c(c2)Oc2nc4c(c(N)c2C3c2ccc(Cl)c(Cl)c2)CCCC4)cc1 (stereo not shown)
inhibition (APP; Aβ42 self-aggregation, inhibitor, thioflavin T fluorescence; 1 µM): 14%

O=C(Nc1cccc(OS(=O)(=O)c2ccc(Cl)cc2)c1)c1ccc2ncccc2c1
inhibition (P2Y purinoceptor 1 (Meleagris gallopavo, UniProt P49652); receptor activation, antagonist, calcium mobilization; 1321N1 cells expressing P2Y1 receptor; 100 µM, together with: ADP 500 nM): 35%

CC(C)c1cc(Br)c(NC(=O)Nc2cccnc2)c(Br)c1
inhibition (P2X purinoceptor 4 (P2RX4, Homo sapiens, UniProt Q99571); ion current, antagonist, whole-cell patch clamp; HEK293T cells; 10 µM): 84.05 ± 0.01%

CN(C(=O)n1cnc(-c2ccc[n+]([O-])c2)c1)C1CCCCC1
inhibition (CXCR4 (Homo sapiens, UniProt P61073); radioligand binding, inhibitor; 50 µM): -2%

CC1(C)O[C@@H]2C[C@H]3[C@@H]4CCC5=CC(=O)C=C[C@]5(C)[C@@]4(F)[C@@H](O)C[C@]3(C)[C@]2(C(=O)CO)O1
maximum inhibition (human coronavirus OC43; virus-induced cell killing; MRC-5; screen): 25.8%

COc1cccc(C(=O)Nc2ccc3c(c2)B(O)OC3)c1
inhibition (Genome polyprotein NS2B-NS3 protease; enzyme activity, FRET; 50 µM, together with: substrate 50 µM): ≤ 10%

CC(C)(Nc1nc(N2CCNCC2)nc2ccccc12)c1ccccc1
cytotoxicity efficacy (Vero-E6; CellTiter-Glo ATP; concentration not given, 72 h, second round 5-point; baseline: DMSO 0%, hyamine -100%, more negative, more toxic): -10.9%

c1ccc(C(NCCNC(c2ccccc2)c2ccccc2)c2ccccc2)cc1
inhibition (Na+/K+-ATPase, pig heart; enzyme activity; 10 µM, Eurofins selectivity panel): 1%

O=C(Nc1ccc2c(c1)B(O)OC2)c1cccc(NCc2ccccc2)c1
inhibition (Genome polyprotein NS2B-NS3 protease; enzyme activity, FRET; 50 µM, together with: substrate 50 µM): 21 ± 4%

O=C(Nc1cccnn1)N1CCC(=Cc2cccc(Oc3ccc(C(F)(F)F)cn3)c2)CC1
inhibition (Tmem97 (Rattus norvegicus, UniProt Q5U3Y7); radioligand binding, inhibitor; 50 µM, rat, together with: [3H]ifenprodil): 73%

C=C(C)[C@H]1Cc2c(ccc3c2O[C@@H]2COc4cc(OC)c(OC)cc4[C@@H]2C3=O)O1
inhibition (TLR2 (Homo sapiens, UniProt O60603); SEAP reporter gene, antagonist; HEK-Blue hTLR2; 10 µM, together with: Pam3CSK4): > 90%

CS(=O)(=O)N1CCN(Cc2cc3nc(-c4cccc5[nH]ncc45)nc(N4CCOCC4)c3s2)CC1
maximum inhibition (human coronavirus OC43; virus-induced cell killing; MRC-5; maximum over 10 doses): 0%

CN1CCN(c2cc(-c3ccncc3)c(-c3ccc4ccccc4c3)nn2)CC1
inhibition (NTSR1 (Homo sapiens, UniProt P30989); antagonist, FLIPR; 10 µM): -8.4%

Nc1c2c(nc3c1C(c1cccc([N+](=O)[O-])c1)c1ccc(OS(=O)(=O)c4ccc(F)cc4)cc1O3)CCCC2 (stereo not shown)
inhibition (APP; Aβ42 self-aggregation, inhibitor, thioflavin T fluorescence; 10 µM): 82%

COc1ccc(N2C(=O)N(c3c(C)cccc3Cl)Cc3cnc(Nc4ccc(C5CCN(C)CC5)cc4OC)nc32)nc1
inhibition (TAOK3 (Homo sapiens, UniProt Q9H2K8); kinase activity; 0.5 µM): 9%

N#Cc1ccc(CNc2ccc3c(c2)B(O)OC3)cc1
inhibition (Genome polyprotein NS2B-NS3 protease; enzyme activity, FRET; 50 µM, together with: substrate 50 µM): 19 ± 4%

Excerpt of the above:
O=c1[nH]c2sccc2c(=O)n1O
inhibition (Tripartite terminase subunit 3, C-terminal nuclease domain (Human betaherpesvirus 5, UniProt P16732); endonuclease activity, ELISA; 20 µM, together with: dsDNA): 94%

Cc1ccc(S(=O)(=O)Oc2ccc3c(c2)Oc2nc4c(c(N)c2C3c2ccc(Cl)c(Cl)c2)CCCC4)cc1 (stereo not shown)
inhibition (APP; Aβ42 self-aggregation, inhibitor, thioflavin T fluorescence; 1 µM): 14%
